Measurements gathered from unrelated publications.
A part holds a random share of what one study measured. ± marks the error that the study gave.
Sequence of UniProt Q03164 (whole entry, unmodified, looked up): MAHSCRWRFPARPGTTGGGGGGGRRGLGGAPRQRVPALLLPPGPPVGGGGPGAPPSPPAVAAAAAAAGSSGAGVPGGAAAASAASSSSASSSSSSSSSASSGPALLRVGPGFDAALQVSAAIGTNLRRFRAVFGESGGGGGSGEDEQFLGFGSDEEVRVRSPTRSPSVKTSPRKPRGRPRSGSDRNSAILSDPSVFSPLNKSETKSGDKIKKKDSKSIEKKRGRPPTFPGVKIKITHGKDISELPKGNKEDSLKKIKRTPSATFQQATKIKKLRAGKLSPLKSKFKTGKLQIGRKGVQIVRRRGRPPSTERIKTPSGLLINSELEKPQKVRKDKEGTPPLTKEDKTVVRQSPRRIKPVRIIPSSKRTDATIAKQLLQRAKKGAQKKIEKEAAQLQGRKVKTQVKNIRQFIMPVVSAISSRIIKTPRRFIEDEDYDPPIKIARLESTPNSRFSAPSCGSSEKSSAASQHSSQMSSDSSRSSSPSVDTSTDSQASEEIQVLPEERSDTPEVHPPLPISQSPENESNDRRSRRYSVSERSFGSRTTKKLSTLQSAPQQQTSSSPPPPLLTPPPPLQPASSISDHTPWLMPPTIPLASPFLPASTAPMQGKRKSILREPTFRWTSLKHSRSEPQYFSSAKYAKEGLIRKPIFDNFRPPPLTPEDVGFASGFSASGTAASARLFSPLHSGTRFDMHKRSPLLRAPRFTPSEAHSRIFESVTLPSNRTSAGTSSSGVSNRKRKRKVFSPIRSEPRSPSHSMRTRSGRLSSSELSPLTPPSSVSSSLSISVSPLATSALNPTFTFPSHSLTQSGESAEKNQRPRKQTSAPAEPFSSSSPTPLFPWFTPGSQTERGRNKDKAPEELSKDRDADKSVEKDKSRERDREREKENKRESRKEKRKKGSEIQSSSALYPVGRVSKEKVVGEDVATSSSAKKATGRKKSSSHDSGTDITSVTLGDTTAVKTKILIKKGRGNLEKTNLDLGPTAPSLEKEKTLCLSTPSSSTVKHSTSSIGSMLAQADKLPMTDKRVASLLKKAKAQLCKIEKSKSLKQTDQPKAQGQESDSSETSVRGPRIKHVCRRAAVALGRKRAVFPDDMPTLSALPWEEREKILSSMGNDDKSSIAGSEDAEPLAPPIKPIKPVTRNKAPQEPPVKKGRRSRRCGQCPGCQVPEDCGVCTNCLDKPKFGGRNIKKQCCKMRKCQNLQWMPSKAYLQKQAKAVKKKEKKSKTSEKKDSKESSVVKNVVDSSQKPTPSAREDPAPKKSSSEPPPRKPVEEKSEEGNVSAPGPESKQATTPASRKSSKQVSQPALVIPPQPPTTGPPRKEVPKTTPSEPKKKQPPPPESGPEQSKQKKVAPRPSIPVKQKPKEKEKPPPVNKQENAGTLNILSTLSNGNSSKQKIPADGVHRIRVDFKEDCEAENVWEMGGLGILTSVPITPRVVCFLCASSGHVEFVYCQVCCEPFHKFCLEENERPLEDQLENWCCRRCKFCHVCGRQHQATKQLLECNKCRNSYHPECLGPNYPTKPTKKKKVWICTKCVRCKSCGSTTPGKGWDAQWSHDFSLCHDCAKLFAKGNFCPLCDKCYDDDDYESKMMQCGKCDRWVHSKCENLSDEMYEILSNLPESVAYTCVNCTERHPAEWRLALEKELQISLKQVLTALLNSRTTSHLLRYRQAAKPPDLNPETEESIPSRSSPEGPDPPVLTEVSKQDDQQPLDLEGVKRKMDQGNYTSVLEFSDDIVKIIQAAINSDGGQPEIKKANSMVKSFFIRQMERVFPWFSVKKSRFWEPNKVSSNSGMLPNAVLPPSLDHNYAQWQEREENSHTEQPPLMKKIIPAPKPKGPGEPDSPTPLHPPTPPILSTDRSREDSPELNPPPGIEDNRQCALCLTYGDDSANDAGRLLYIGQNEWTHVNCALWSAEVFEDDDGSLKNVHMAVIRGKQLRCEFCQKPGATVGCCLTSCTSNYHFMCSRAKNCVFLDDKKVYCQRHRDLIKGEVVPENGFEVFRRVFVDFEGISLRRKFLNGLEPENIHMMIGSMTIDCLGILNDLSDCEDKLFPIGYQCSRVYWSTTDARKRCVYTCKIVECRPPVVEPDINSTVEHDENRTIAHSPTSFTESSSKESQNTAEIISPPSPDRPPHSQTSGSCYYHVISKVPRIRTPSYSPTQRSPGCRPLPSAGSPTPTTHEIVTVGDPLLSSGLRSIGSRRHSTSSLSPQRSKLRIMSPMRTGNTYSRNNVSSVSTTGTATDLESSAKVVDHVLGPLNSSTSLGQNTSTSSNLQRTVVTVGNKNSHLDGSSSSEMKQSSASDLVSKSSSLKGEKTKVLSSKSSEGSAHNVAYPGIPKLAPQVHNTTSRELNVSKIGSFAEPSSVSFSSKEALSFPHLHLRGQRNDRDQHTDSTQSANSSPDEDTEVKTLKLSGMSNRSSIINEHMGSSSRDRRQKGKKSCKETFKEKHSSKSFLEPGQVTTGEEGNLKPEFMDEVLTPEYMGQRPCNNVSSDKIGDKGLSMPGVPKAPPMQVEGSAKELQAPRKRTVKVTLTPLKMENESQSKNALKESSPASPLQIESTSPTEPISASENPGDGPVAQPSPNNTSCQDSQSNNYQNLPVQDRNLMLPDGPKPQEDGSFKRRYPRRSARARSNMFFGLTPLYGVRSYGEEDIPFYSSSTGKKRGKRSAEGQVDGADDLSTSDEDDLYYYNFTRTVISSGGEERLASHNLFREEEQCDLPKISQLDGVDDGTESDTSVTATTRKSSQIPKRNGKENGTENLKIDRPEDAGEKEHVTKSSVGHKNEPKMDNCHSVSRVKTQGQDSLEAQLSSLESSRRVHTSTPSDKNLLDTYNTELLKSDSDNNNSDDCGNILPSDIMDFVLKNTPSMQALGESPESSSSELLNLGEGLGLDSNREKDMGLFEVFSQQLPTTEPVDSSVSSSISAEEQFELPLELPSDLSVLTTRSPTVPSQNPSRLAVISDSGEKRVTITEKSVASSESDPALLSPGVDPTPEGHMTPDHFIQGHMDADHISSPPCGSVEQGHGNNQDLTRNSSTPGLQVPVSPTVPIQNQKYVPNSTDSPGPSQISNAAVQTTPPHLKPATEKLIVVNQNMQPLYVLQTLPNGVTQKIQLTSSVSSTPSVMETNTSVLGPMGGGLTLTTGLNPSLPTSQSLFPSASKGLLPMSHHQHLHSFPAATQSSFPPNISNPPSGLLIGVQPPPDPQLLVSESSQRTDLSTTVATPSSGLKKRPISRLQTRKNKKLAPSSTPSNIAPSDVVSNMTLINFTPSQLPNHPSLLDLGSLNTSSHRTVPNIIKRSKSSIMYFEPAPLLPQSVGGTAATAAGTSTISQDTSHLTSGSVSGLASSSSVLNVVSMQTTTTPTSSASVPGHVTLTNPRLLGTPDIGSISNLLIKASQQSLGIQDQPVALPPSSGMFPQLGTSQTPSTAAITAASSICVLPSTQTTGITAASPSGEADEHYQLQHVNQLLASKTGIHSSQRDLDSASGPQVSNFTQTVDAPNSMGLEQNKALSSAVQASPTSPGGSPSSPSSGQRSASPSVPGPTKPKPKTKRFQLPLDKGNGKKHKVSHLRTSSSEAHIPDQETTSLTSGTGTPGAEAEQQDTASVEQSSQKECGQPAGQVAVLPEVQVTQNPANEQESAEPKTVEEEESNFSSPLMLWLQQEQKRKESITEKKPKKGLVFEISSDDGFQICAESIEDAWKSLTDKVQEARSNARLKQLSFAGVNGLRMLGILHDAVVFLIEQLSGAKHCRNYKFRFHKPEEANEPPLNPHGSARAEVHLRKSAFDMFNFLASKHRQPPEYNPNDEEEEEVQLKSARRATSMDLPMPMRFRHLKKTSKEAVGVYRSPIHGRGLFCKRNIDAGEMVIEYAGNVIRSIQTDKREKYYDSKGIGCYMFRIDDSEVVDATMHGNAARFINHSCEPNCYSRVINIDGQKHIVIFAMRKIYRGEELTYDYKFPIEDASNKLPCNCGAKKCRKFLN
Sequence of UniProt P34913 (whole entry, looked up): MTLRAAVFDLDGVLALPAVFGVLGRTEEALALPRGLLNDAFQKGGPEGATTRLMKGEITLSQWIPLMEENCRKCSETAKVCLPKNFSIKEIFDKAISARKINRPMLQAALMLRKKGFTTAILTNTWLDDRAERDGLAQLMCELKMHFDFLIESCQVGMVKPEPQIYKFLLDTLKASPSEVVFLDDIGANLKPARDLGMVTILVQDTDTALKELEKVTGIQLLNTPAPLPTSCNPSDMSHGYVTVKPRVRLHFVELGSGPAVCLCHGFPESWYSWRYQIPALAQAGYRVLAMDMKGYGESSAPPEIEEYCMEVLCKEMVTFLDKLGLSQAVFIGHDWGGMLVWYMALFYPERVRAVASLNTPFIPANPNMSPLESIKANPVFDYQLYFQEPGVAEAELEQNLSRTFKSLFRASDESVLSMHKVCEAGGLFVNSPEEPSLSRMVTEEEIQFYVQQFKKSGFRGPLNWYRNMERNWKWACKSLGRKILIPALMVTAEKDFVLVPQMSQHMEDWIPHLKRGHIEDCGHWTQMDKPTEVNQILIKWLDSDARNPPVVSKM

Set 1
SMILES: Cc1cc(OCc2nnc(SC3CCCC3)n2-c2cccnc2)ccc1-c1ccc(S(C)(=O)=O)cc1
cell line | CC50 [µM]
OVCAR-4 | > 100
HL-60(TB) | > 100
MOLT-4 | > 100

Further values, each from its own experiment
SMILES | tested on | assay | test system | setting | measurement | value
O=C(Nc1ccc(F)cc1)NC1CCN(c2c(NS(=O)(=O)Cc3ccccc3)c(=O)c2=O)CC1 | EPHX2 (Homo sapiens, UniProt P34913) |  |  |  | IC50 | 0.129 ± 0.0157 µM
N#Cc1ccc(-c2csc(CNC(=O)C34CC(CN(C(=O)COCCF)C3)C4)n2)cc1 |  |  | Sprague Dawley rats male, plasma | intravenous, 1 mg/kg | clearance | 8.4 mL/min/kg
CC[C@@H]1C(=O)N(C)c2cnc(Nc3ccc(C(=O)NC4CCN(C)CC4)cc3OC)nc2N1C1CCCC1 | KMT2A (Homo sapiens, UniProt Q03164) | thermal stabilisation, thermal shift |  | 10 µM | ΔTm | -0.29 ± 0.24 °C

Repeated from above (further values, each from its own experiment):
SMILES | tested on | assay | test system | setting | measurement | value
N#Cc1ccc(-c2csc(CNC(=O)C34CC(CN(C(=O)COCCF)C3)C4)n2)cc1 |  |  | Sprague Dawley rats male, plasma | intravenous, 1 mg/kg | clearance | 8.4 mL/min/kg
